Measurements collected from several papers.
Each numbered part is a random draw from the data of one study; scales do not carry over between parts.

Series 1 — method: RNA Bind-n-Seq; form: RNA; matrix: in vitro; tested at: not given; relative to: input RNA pool; direction: higher = stronger binding
Target: RING finger protein unkempt homolog, zinc fingers 1-6, GST-SBP tag (UNK, Homo sapiens, UniProt Q9C0B0, residues 30-357)
Sequence of UniProt Q9C0B0 (30-357, looked up): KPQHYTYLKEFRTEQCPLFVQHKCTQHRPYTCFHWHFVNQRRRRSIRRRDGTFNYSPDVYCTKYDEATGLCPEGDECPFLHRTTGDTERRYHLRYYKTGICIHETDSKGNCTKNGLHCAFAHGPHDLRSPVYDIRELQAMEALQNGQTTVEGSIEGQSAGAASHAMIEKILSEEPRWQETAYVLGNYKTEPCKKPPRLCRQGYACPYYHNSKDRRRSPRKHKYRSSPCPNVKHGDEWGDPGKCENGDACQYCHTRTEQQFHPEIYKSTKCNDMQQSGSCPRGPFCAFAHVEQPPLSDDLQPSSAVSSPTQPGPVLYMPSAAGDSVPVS
Notes: RNA with constant flanks, human and mouse sites, ends assumed
Constant ends, left off below: GGGAGUUCUACAGUCCGACGAUC … CAACAGAGGAUUGAGCAUCA
For `GAUGAAAAGAUGAGCCCAACAAUUGGAAAACAAUUACUUAAGGGCUCCGCUGAUCCUCUAAAUAGUGCUUUCCAUUUGACCUACAACAUGGUUUUGAACUUACUACGUGUAGAAGAAAUU`, the bound/input enrichment was 0.14 ratio.
With `GCGAGCAAAGUGCUGCUGUGCCAUGGGGAGCUGAAGAAUAAAAGCGGCCAUAAACUGUACAUUUUCCUAUUUCAAGACAUCUUGGUUUUGACUCGGCCUGUCACCCGAAAUGAGCGCCAC` the bound/input enrichment was 0.251 ratio.
The bound/input enrichment of `GAAGGAUCUAGGAAAUCAUCAAGGGUUAAGGGUUCAGCACCAGAAAUUGAUCCUUCAUCUGAUAGUUCAAAUUUUGUUUGGGAAACAAAAAUCAAAGCAUGGAUGGAUCGUUACGAAGAA` is reported as 0.427 ratio.
The bound/input enrichment of `AGCUAUGUGAGUAGGAGAAGGAGAACUAAAAAGAGUGUGGAUACAAGCGUCCAAACUGAUGAUGAAGAUCAGGAUGAGUGGGAUAUGCCUACUAGAUCAAGGAGGAAAGCUCGUGUAGGG` is reported as 0.451 ratio.
With `CUGUCAUGACUGGGUAGUGUGGACUAUCCUGAGCCGUAACUGCUCUGAAUGUUCACUCGAUUAGCCAUGUAUAUUUUAAAUGCUAAUAUUUAAUGAAUGUAAGUUUCAACAUUGUUGCUA` the bound/input enrichment was 2.01 ratio.
The bound/input enrichment of `UUAUGUCUUAUAAUCCUGCAUCACUUCCAUCCUAUCCAGUCAUAUCUAAUGUAGAAAAAUUAGUUUCCAGUGAAAGUAAUAUGUAGUGCUUUUAUGAUAUUUGUGUGCAAUAUCCCCUCU` is reported as 18.1 ratio.
For `GUUUUUGACAAAAACAGGCGUUUACAGCUUUUAGAUGGGGAAUAUGAAGUGGCCAUGCAGGAAAUGGAAGAAUGUCCAAUAAGUAAGAAAAGAGCAACAUGGGAGACAAUUCUUGAUGGG`, the bound/input enrichment was 0.721 ratio.
For `UUCCAGGUUGGCCUGUGAGGAGCAGAGAGUGUUAGCAAGGUGUGCAAAGGAGGCUCUGUUCUCUCUGGUAAUAGGUGUUCUGGAGUGUUCCAGUAGGUUGGCUACUUGUCUUAGUUUCUA`, the bound/input enrichment was 0.719 ratio.

Series 2 — method: protein-binding microarray; form: double-stranded DNA, one strand shown; matrix: in vitro; tested at: 0.8 µM; notes: whole 60-bp probe, no competitor; direction: higher = stronger binding; constant ends, left off below: … GTCTTGATTCGCTTGACGCTGCTG
Target: Centromere-binding protein 1, full length, N-terminal tag (CBF1, Saccharomyces cerevisiae, UniProt P17106, residues 1-351)
Sequence of UniProt P17106 (whole entry, looked up): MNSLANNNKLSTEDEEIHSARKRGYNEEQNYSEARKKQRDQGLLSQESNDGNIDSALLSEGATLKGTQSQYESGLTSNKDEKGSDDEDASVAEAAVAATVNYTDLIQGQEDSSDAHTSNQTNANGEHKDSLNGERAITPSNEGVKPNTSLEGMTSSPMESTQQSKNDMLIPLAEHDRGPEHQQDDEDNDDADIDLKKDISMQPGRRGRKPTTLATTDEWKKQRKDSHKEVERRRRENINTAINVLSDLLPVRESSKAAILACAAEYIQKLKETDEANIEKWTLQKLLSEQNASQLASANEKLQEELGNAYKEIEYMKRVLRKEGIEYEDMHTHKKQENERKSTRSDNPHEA
For `CTAACCGTTGTCTCCCACGTTTCTTTTTTCTCGTTC`, the fluorescence intensity was 617 a.u.
`CTACCCAACAATTACATCAGAACCCACACTCTCTTC` has a fluorescence intensity of 520 a.u.
The fluorescence intensity of `CTAAGTAAATACCATAACGTGCTCACATTTGTCTTC` is reported as 823 a.u.
`CTATTCAAACTTCATCATCAGAAAGGTATACTGTTC` has a fluorescence intensity of 529 a.u.
`GAATAAGTTACCCCTCATGACTTCCCAAGTGTGTAG` has a fluorescence intensity of 630 a.u.
`CTACTGCTTTTCCTCGAGGTCACCCAAATATACTTC` gave a fluorescence intensity of 533 a.u.
The fluorescence intensity of `GAATCTTCCAGCTTAAACGTGCTTCGTCACTCGTAG` is reported as 553 a.u.
With `CTATTACTAAAAAATCGCGTGCACTTTCATGGTTTC` the fluorescence intensity was 583 a.u.

Series 3 — action: inhibitor; tested at: 20 µM
Target: Replicase polyprotein 1ab, nsp13 helicase (rep, Severe acute respiratory syndrome coronavirus 2, UniProt P0DTD1)
With `C[C@H](Nc1cc2c(-c3ccc4c(c3)OCO4)noc2cn1)c1ccccc1` the inhibition was 1.98%.
`Cc1cc(-n2c(=O)[nH]c(=O)n(C)c2=O)ccc1Oc1ccc(SC(F)(F)F)cc1` gave an inhibition of 3.4%.
For `C[C@@H](NCCc1ccc(O)cc1)[C@@H](O)c1ccc(O)cc1` (racemic), the inhibition was 2.69%.
With `N[C@@H](CSS(=O)(=O)O)C(=O)O` the inhibition was 3.84%.
For `Cn1cc(C2=C(c3ccc(Cl)cc3Cl)C(=O)NC2=O)c2ccccc21`, the inhibition was -1.31%.
`CN1CCN(C(=O)c2nc3ccc(Cl)cc3[nH]2)CC1` has an inhibition of 6.94%.
`CCCCOCCOc1nc(-c2ccc(C(=O)O)c(F)c2)sc1C` gave an inhibition of 4.04%.
`CC12CCC(C(=O)N(CCCCN3CCN(c4ccccn4)CC3)C1=O)C2(C)C` (centres unmarked) gave an inhibition of -8.92%.
For `CC(C)(C)C(=O)OCOP(=O)(COCCn1cnc2c(N)ncnc21)OCOC(=O)C(C)(C)C`, the inhibition was 3.2%.
For `CN(C)C(=O)Oc1cc(OC(=O)N(C)C)cc(C(O)CNC(C)(C)C)c1` (centres unmarked), the inhibition was 12.8%.
The inhibition of `N[C@@H]1CN(c2c(F)cc3c(=O)c(C(=O)O)cn([C@@H]4C[C@@H]4F)c3c2Cl)CC12CC2` is reported as 3.29%.
The inhibition of `C[C@]12CCC(=O)C(O)=C1CC[C@@H]1[C@@H]2CC[C@]2(C)C(=O)CC[C@@H]12` is reported as -0.47%.
`COc1cc(Nc2ncc3c(n2)-c2ccc(Cl)cc2C(c2c(F)cccc2OC)=NC3)ccc1C(=O)O` has an inhibition of 11.7%.
The inhibition of `OC(CCN1CCCCC1)(c1ccccc1)c1ccccc1` is reported as 9.02%.
For `O=C1CN=C(c2cccc(Br)c2)c2oc3ccccc3c2N1`, the inhibition was 10.5%.
`Cn1cnc2c1c(=O)[nH]c(=O)n2C` gave an inhibition of -1.32%.
`CC(C)Cc1sc(N)nc1-c1ccc(P(=O)(O)O)o1` has an inhibition of 4.06%.
The inhibition of `OCCN1CCN(CCCN2c3ccccc3Sc3ccc(Cl)cc32)CC1` is reported as 7.5%.
The inhibition of `OC1(c2ccc(Cl)c(C(F)(F)F)c2)CCN(CCCC(c2ccc(F)cc2)c2ccc(F)cc2)CC1` is reported as 1.91%.
For `CC(Cc1cccc(C(F)(F)F)c1)NCCOC(=O)c1ccccc1` (centres unmarked), the inhibition was 2%.
`CCOC(=O)c1ccc(NC2CCCCC2)c(N)c1` gave an inhibition of 1.77%.
The inhibition of `O=C(O)CCCCCCNC1c2ccccc2CCc2ccccc21` is reported as 4.17%.
For `O=C(COc1ccc(Cl)cc1)N1CCN(Cc2ccc3c(c2)OCO3)CC1`, the inhibition was -7.31%.

Series 4 — cell line: HEK-293T; observed: pseudovirus infection; organism: VSV pseudotyped with SARS-CoV-2 spike; tested at: 10 µM; time: 16 h; relative to: vehicle-treated
`CCOC(=O)c1ccc(C#Cc2ccc3c(c2)C(C)(C)CCS3)nc1` has a GFP-positive cells of 157%.
With `C=C(c1ccc(C(=O)O)cc1)c1cc2c(cc1C)C(C)(C)CCC2(C)C` the GFP-positive cells was 43.8%.
`Cc1[nH]cnc1CN1CCc2c(c3ccccc3n2C)C1=O` gave a GFP-positive cells of 83.2%.
For `CNC(=O)c1cc(Oc2ccc(NC(=O)Nc3ccc(Cl)c(C(F)(F)F)c3)cc2)ccn1`, the GFP-positive cells was 2.35%.

Series 5 — observed: enzyme activity; action: inhibitor; tested at: 20 µM; notes: hit confirmation
Target: Replicase polyprotein 1ab, main protease (rep, Severe acute respiratory syndrome coronavirus 2, UniProt P0DTD1)
`CN(CCOc1ccc(-c2ccc3c(c2)OCO3)cc1C(C)(C)C)CC(=O)O` gave an inhibition of -9.4%.
The inhibition of `CCn1c(-c2nonc2N)nc2cnc(Oc3cccc(NC(=O)c4ccc(OCCN5CCOCC5)cc4)c3)cc21` is reported as 60.4%.
`NC(=O)c1cc[n+](CC2=C(C(=O)O)N3C(=O)[C@@H](NC(=O)Cc4cccs4)[C@H]3SC2)cc1` gave an inhibition of 9.4%.
For `Cc1c(C)c(NCC(=O)N(C)C2CCN(Cc3ccc(C(N)=O)cc3)CC2)c(C)c(C)c1N`, the inhibition was -0.5%.

Some of these lines once more (series 5):
`NC(=O)c1cc[n+](CC2=C(C(=O)O)N3C(=O)[C@@H](NC(=O)Cc4cccs4)[C@H]3SC2)cc1` gave an inhibition of 9.4%.
The inhibition of `CCn1c(-c2nonc2N)nc2cnc(Oc3cccc(NC(=O)c4ccc(OCCN5CCOCC5)cc4)c3)cc21` is reported as 60.4%.
For `Cc1c(C)c(NCC(=O)N(C)C2CCN(Cc3ccc(C(N)=O)cc3)CC2)c(C)c(C)c1N`, the inhibition was -0.5%.
`CN(CCOc1ccc(-c2ccc3c(c2)OCO3)cc1C(C)(C)C)CC(=O)O` gave an inhibition of -9.4%.
